# Assay results of several laboratories.
# Parts stem from different laboratories: compare values within a part only. “And” joins repeats or separate records; there may be more than shown.
# Sequence of UniProt Q15831 (whole entry, looked up): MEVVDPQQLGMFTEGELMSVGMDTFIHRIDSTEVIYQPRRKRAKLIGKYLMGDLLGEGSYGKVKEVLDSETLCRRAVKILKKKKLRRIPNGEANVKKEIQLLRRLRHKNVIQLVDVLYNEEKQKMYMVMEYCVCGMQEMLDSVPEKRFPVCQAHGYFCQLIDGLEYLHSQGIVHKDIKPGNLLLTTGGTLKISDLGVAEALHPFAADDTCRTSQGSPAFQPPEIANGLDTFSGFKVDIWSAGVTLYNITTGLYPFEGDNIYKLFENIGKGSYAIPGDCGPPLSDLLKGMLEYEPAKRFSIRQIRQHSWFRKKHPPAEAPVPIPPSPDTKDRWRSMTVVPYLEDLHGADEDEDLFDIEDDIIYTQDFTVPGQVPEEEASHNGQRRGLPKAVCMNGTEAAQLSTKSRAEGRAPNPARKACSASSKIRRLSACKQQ
# Sequence of UniProt Q13557 (whole entry, looked up): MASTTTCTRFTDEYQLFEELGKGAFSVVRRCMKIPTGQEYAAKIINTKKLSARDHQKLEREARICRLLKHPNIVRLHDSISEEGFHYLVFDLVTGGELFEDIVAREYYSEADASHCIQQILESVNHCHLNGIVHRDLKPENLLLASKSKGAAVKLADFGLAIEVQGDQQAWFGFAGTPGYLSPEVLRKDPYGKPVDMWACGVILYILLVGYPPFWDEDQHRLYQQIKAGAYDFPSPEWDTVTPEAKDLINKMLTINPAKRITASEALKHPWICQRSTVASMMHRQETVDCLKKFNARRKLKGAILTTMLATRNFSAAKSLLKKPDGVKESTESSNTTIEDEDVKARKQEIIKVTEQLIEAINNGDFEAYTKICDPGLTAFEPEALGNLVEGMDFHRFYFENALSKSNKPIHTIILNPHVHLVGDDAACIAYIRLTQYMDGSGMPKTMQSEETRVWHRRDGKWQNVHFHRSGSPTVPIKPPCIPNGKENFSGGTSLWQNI
# Sequence of UniProt P11802 (whole entry, looked up): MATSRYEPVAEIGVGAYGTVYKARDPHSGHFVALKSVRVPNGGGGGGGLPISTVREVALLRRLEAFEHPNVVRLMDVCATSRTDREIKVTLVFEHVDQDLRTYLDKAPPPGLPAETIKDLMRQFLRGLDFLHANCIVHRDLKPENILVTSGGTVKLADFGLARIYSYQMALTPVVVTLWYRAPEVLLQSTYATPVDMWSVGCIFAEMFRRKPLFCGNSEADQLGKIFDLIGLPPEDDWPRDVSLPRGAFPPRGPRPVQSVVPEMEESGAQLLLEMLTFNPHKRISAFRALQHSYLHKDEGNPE
# Sequence of UniProt Q9UIK4 (whole entry, looked up): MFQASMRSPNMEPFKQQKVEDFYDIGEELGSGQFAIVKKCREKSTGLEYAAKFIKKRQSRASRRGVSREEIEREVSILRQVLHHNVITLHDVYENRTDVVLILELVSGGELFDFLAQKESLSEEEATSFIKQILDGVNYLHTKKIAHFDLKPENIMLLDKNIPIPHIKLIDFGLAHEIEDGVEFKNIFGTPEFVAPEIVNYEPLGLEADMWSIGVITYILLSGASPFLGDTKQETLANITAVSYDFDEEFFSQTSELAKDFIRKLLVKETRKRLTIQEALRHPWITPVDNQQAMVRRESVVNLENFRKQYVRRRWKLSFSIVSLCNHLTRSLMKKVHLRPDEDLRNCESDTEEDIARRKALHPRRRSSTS
# Sequence of UniProt Q96RR4 (whole entry, looked up): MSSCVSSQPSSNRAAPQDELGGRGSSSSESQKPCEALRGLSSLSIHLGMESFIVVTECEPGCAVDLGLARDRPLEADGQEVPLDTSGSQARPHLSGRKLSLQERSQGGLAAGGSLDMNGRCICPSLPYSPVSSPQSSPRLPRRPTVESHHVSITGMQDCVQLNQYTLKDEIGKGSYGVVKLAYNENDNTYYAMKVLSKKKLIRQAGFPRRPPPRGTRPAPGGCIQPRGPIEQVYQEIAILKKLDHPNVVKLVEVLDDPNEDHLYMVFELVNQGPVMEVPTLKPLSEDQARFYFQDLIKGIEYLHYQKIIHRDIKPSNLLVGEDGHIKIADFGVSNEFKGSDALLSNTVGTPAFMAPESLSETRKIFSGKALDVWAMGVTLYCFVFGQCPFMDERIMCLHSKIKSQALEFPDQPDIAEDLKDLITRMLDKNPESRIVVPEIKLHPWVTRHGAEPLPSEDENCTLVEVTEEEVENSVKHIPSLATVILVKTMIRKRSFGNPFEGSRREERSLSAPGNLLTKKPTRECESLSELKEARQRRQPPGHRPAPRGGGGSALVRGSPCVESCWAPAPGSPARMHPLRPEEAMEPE
# Sequence of UniProt Q00535 (whole entry, looked up): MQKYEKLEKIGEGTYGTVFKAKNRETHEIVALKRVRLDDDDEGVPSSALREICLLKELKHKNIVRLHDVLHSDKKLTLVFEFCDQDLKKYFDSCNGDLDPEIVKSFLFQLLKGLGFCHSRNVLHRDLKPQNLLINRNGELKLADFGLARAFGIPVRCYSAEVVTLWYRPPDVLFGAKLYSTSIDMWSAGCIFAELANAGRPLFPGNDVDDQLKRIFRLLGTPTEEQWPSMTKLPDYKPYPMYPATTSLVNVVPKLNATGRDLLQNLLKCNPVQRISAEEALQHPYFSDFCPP

# Set 1 — effect on: enzyme activity; mode: inhibitor; tested at: 77 µM; baseline: untreated
# Target: DNA polymerase theta, ATPase domain (POLQ, Homo sapiens, UniProt O75417)
# Sequence of UniProt O75417 (whole entry, unmodified, looked up): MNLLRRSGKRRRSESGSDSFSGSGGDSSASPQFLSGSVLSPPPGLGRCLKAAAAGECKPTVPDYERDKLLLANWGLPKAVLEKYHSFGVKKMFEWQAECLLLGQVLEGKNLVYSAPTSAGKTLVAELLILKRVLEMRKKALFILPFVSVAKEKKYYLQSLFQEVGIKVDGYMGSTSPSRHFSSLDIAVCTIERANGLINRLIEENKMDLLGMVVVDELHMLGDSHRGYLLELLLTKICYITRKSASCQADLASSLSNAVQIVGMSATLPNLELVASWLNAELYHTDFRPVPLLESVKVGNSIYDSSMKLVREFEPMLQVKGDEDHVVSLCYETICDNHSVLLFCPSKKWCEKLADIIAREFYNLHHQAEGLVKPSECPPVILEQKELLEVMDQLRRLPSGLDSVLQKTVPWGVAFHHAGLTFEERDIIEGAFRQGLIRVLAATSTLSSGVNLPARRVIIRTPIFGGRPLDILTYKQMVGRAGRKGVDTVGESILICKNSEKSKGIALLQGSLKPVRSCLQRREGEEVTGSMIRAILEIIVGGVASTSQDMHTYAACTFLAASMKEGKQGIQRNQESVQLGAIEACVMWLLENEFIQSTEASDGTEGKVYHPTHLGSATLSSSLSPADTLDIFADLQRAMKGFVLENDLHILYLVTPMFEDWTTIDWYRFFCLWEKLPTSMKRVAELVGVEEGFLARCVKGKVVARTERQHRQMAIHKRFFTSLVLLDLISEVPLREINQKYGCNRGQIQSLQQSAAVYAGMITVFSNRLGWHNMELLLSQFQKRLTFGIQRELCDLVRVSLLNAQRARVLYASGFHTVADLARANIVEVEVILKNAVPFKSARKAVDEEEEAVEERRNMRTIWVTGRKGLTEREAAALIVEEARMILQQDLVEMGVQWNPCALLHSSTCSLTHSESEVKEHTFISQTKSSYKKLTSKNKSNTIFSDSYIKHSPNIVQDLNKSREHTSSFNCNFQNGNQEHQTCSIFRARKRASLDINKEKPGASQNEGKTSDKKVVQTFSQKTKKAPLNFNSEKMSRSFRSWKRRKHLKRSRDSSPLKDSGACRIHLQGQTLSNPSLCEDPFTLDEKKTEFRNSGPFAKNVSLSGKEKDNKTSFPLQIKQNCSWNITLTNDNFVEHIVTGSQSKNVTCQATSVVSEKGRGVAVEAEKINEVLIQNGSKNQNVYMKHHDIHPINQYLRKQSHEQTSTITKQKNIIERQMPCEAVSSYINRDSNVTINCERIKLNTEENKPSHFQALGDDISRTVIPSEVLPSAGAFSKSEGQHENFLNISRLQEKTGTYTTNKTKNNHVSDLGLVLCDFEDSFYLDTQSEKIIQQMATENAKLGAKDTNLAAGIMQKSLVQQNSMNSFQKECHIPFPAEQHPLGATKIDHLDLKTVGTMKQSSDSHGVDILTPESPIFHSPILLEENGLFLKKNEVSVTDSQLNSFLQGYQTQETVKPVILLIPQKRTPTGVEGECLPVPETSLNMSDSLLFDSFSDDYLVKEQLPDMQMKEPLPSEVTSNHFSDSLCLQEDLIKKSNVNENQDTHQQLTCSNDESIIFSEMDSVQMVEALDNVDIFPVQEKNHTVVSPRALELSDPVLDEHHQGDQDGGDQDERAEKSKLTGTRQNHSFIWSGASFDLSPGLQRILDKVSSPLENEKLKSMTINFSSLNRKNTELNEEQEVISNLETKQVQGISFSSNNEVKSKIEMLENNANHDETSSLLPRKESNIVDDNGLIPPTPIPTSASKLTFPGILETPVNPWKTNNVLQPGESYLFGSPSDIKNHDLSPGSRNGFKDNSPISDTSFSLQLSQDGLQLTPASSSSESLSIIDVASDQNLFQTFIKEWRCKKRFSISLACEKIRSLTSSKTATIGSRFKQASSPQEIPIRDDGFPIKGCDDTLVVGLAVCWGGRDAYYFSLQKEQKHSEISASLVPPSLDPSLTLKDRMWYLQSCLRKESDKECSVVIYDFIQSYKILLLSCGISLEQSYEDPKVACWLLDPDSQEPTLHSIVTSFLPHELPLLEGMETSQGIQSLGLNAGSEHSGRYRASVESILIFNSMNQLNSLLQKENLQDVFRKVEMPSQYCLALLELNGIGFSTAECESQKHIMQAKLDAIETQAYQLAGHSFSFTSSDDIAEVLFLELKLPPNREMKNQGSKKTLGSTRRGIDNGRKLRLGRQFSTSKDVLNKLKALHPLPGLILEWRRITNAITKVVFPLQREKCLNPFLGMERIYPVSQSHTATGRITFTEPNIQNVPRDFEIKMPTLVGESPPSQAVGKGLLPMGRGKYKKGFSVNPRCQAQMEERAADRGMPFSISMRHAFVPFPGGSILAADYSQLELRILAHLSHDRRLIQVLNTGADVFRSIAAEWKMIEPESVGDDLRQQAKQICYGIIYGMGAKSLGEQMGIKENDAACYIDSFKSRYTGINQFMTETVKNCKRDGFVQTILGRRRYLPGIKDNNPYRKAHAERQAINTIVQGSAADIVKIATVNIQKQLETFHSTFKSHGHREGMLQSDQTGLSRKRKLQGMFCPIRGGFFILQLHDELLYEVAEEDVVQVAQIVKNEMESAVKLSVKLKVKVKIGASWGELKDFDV
SMILES,remaining activity
CC(C)(Oc1ccc(Cl)cc1)C(=O)OCCOC(=O)c1cccnc1,92.2%
O=C1c2c(O)cc(O)cc2O[C@H](c2cc(O)c(O)c(O)c2)[C@H]1O,90.8%
CCCCCCCCCCCCCCCCO,99.6%
CC(=O)O[C@H]1C(=O)[C@@]2(C)[C@H]([C@H](OC(=O)c3ccccc3)[C@]3(O)C[C@H](OC(=O)[C@H](O)[C@@H](NC(=O)c4ccccc4)c4ccccc4)C(C)=C1C3(C)C)[C@]1(OC(C)=O)CO[C@@H]1C[C@@H]2O,101% and 94.5%
O=C1CCc2cc(OCCCCc3nnnn3C3CCCCC3)ccc2N1,99.8% and 104%
CCCOc1ccc(/C=C2/SC(=O)NC2=O)cc1,93.5%
CCCCCCCCCCCCCCCCCCOCC(COP(=O)([O-])OCC[N+](C)(C)C)OC (stereo not shown),104%
COc1cnc(NS(=O)(=O)c2ccc(N)cc2)nc1,86.4% and 104%
C[C@H](O)C(=O)Nc1c(I)c(C(=O)NC(CO)CO)c(I)c(C(=O)NC(CO)CO)c1I,80.4%
Cc1c(-c2ccnn2C)cc(C(=O)NCc2ccc(S(C)(=O)=O)cn2)c(=O)n1-c1cccc(C(F)(F)F)c1,102%

# Set 2 — effect on: cell-free assay; method: competition with immobilised ligand; tested at: 1 µM
# Compound: C[C@@]1(Cc2ccc(C#N)cc2)C(=O)N(c2cc(Cl)cc(Cl)c2)c2ncc(C(=O)NC3(c4nc(C5CCC5)no4)CC3)n21
target,remaining binding [%]
"Misshapen-like kinase 1 (MINK1, Homo sapiens, UniProt Q8N4C8)",100
"Tyrosine-protein kinase ITK/TSK (ITK, Homo sapiens, UniProt Q08881)",92
"Non-receptor tyrosine-protein kinase TYK2, JH2 (TYK2, Homo sapiens, UniProt P29597)",100
"Peripheral plasma membrane protein CASK (CASK, Homo sapiens, UniProt O14936)",100
"Serine/threonine-protein kinase PAK 6 (PAK6, Homo sapiens, UniProt Q9NQU5)",100
"Atypical kinase COQ8B, mitochondrial (COQ8B, Homo sapiens, UniProt Q96D53)",100
"Serine/threonine-protein kinase WNK2 (WNK2, Homo sapiens, UniProt Q9Y3S1)",100
"Serine/threonine-protein kinase mTOR (MTOR, Homo sapiens, UniProt P42345)",91
"Phosphatidylinositol 4,5-bisphosphate 3-kinase catalytic subunit alpha isoform (PIK3CA, Homo sapiens, UniProt P42336)",87
"Testis-specific serine/threonine-protein kinase 1 (TSSK1B, Homo sapiens, UniProt Q9BXA7)",76
"Serine/threonine-protein kinase tousled-like 1 (TLK1, Homo sapiens, UniProt Q9UKI8)",100
"Ephrin type-A receptor 3 (EPHA3, Homo sapiens, UniProt P29320)",83
"Mitogen-activated protein kinase kinase kinase kinase 4 (MAP4K4, Homo sapiens, UniProt O95819)",91
"Mitogen-activated protein kinase 14 (MAPK14, Homo sapiens, UniProt Q16539)",100
"NUAK family SNF1-like kinase 2 (NUAK2, Homo sapiens, UniProt Q9H093)",100
"Myosin-IIIb (MYO3B, Homo sapiens, UniProt Q8WXR4)",99
"Serine/threonine-protein kinase NIM1 (NIM1K, Homo sapiens, UniProt Q8IY84)",100
"Myosin-IIIa (MYO3A, Homo sapiens, UniProt Q8NEV4)",100
"5'-AMP-activated protein kinase catalytic subunit alpha-2 (PRKAA2, Homo sapiens, UniProt P54646)",100
"Mitogen-activated protein kinase 12 (MAPK12, Homo sapiens, UniProt P53778)",100
"Ephrin type-B receptor 4 (EPHB4, Homo sapiens, UniProt P54760)",100

# Set 3 — Compound: Cn1cnc2cc3c(Nc4cccc(Br)c4)ncnc3cc21; effect on: enzyme activity; mode: inhibitor; tested at: 0.5 µM; baseline: control
target,remaining activity [%]
"Serine/threonine-protein kinase Chk2 (CHEK2, Homo sapiens, UniProt O96017)",101
"TGF-beta receptor type-1 (TGFBR1, Homo sapiens, UniProt P36897)",97.6
"Inhibitor of nuclear factor kappa-B kinase subunit epsilon (IKBKE, Homo sapiens, UniProt Q14164)",98.7
"G protein-coupled receptor kinase 3 (GRK3, Homo sapiens, UniProt P35626)",89.9
"Mitogen-activated protein kinase 9 (MAPK9, Homo sapiens, UniProt P45984)",92.3
"TGF-beta receptor type-2 (TGFBR2, Homo sapiens, UniProt P37173)",98.9
"Serine/threonine-protein kinase Nek2 (NEK2, Homo sapiens, UniProt P51955)",103
"Inhibitor of nuclear factor kappa-B kinase subunit beta (IKBKB, Homo sapiens, UniProt O14920)",104
"Serine/threonine-protein kinase 10 (STK10, Homo sapiens, UniProt O94804)",35.8
"Serine/threonine-protein kinase OSR1 (OXSR1, Homo sapiens, UniProt O95747)",94.6
"Death-associated protein kinase 1 (DAPK1, Homo sapiens, UniProt P53355)",87.2
"cAMP-dependent protein kinase catalytic subunit alpha (PRKACA, Homo sapiens, UniProt P17612)",105
"Protein kinase C alpha type (PRKCA, Homo sapiens, UniProt P17252)",79
"Death-associated protein kinase 2 (DAPK2, Homo sapiens, UniProt Q9UIK4)",92.5
"Protein kinase C beta type, isoform beta-I (PRKCB, Homo sapiens, UniProt P05771)",100
"Calcium/calmodulin-dependent protein kinase kinase 2 (CAMKK2, Homo sapiens, UniProt Q96RR4)",99.6
"cGMP-dependent protein kinase 1, isoform beta (PRKG1, Homo sapiens, UniProt Q13976)",98
"Calcium/calmodulin-dependent protein kinase type II subunit delta (CAMK2D, Homo sapiens, UniProt Q13557)",92.2
"STE20/SPS1-related proline-alanine-rich protein kinase (STK39, Homo sapiens, UniProt Q9UEW8)",111
"Cyclin-dependent kinase 4, with cyclin D1 (CDK4, Homo sapiens, UniProt P11802)",84
"Tyrosine-protein kinase Lyn, isoform B (LYN, Homo sapiens, UniProt P07948)",75.8
"Cyclin-dependent kinase 5, with p25 (CDK5, Homo sapiens, UniProt Q00535)",88
"Mitogen-activated protein kinase kinase kinase 3 (MAP3K3, Homo sapiens, UniProt Q99759)",109
"Serine/threonine-protein kinase STK11 (STK11, Homo sapiens, UniProt Q15831)",91.1

# Set 4
# SMILES: COc1cc(C(=O)OCCCN2CCCN(CCCOC(=O)c3cc(OC)c(OC)c(OC)c3)CC2)cc(OC)c1OC
method,species,route,dose,time,notes,paw withdrawal frequency
"von Frey, 0.4 g filament","mouse, CFA inflammatory pain",subcutaneous,10 mg/kg,3 h post-dose,"third injection, day 5",70% and 60% and 80% and 90%
"von Frey, 0.4 g filament","mouse, CFA inflammatory pain",intravenous,dose not given,5 h post-dose,"first injection, day 1",80% and 90% and 70%
"von Frey, 0.4 g filament","mouse, CFA inflammatory pain",intravenous,dose not given,3 h post-dose,"third injection, day 5",80% and 90% and 70%
"von Frey, 0.4 g filament","mouse, CFA inflammatory pain",intravenous,dose not given,5 h post-dose,"second injection, day 3",90% and 80% and 70%
"von Frey, 0.4 g filament","mouse, CFA inflammatory pain",subcutaneous,10 mg/kg,24 h post-dose,"first injection, day 1",80% and 60% and 70% and 90%
von Frey test,"mouse, STZ diabetic neuropathy",subcutaneous,"30 mg/kg, second of three doses",5 h,,0.08 fraction of stimuli and 0.36 fraction of stimuli and 0.17 fraction of stimuli and 0.13 fraction of stimuli and 0.32 fraction of stimuli
von Frey test,"mouse, STZ diabetic neuropathy",subcutaneous,"30 mg/kg, second of three doses",1 h,,0.29 fraction of stimuli and 0.51 fraction of stimuli and 0.13 fraction of stimuli and 0.15 fraction of stimuli and 0.12 fraction of stimuli
"von Frey, 0.4 g filament","mouse, CFA inflammatory pain",subcutaneous,10 mg/kg,24 h post-dose,"second injection, day 3",90% and 70% and 80% and 60%
"von Frey, 0.4 g filament","mouse, CFA inflammatory pain",subcutaneous,10 mg/kg,1 h post-dose,"second injection, day 3",90% and 80% and 60% and 70%

# Excerpt of the above (set 3):
target,remaining activity [%]
"TGF-beta receptor type-2 (TGFBR2, Homo sapiens, UniProt P37173)",98.9
"Inhibitor of nuclear factor kappa-B kinase subunit epsilon (IKBKE, Homo sapiens, UniProt Q14164)",98.7
"STE20/SPS1-related proline-alanine-rich protein kinase (STK39, Homo sapiens, UniProt Q9UEW8)",111
"Inhibitor of nuclear factor kappa-B kinase subunit beta (IKBKB, Homo sapiens, UniProt O14920)",104
